Experimental data of several laboratories.
Lines come from different studies, so protocols differ. Numbers after ± are the reported error.
PGR: Progesterone receptor (PGR, Homo sapiens, UniProt P06401)
UniProt P06401, sequence (whole entry, looked up): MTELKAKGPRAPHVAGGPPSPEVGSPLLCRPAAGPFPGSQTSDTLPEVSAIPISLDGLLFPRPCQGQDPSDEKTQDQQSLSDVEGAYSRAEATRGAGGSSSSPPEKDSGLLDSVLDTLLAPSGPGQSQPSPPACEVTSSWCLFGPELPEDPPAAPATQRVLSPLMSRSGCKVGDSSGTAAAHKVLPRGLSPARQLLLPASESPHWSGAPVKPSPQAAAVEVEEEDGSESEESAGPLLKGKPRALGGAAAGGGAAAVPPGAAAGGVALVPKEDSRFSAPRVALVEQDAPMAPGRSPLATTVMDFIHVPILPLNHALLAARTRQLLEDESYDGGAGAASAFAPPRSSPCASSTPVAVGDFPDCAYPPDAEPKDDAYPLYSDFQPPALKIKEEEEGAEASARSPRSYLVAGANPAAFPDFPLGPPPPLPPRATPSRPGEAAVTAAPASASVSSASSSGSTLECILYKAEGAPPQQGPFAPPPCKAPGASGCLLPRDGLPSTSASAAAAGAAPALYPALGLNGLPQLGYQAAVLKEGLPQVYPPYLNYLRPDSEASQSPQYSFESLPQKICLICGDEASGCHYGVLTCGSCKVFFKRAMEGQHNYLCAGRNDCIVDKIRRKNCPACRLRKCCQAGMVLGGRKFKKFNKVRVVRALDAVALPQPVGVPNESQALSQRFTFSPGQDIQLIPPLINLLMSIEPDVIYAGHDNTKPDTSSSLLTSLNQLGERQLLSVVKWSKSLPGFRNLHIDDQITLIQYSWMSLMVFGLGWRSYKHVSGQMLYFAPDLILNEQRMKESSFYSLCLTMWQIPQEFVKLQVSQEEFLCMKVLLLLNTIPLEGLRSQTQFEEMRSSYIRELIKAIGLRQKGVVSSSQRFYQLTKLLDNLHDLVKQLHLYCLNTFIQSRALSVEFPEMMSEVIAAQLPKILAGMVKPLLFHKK
ilvC: Ketol-acid reductoisomerase (NADP(+)) (ilvC, Mycobacterium tuberculosis, UniProt P9WKJ7)
UniProt P9WKJ7, sequence (whole entry, looked up): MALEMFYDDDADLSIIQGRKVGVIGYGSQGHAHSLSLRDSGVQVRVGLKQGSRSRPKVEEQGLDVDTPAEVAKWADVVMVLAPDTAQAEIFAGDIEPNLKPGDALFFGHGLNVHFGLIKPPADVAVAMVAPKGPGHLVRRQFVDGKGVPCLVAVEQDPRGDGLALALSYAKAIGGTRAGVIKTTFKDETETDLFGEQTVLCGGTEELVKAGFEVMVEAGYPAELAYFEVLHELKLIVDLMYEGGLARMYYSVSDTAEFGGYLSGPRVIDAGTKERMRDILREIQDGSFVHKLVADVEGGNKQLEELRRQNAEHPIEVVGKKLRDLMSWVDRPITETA
BCHE: Cholinesterase (BCHE, Homo sapiens, UniProt P06276)
UniProt P06276, sequence (whole entry, looked up): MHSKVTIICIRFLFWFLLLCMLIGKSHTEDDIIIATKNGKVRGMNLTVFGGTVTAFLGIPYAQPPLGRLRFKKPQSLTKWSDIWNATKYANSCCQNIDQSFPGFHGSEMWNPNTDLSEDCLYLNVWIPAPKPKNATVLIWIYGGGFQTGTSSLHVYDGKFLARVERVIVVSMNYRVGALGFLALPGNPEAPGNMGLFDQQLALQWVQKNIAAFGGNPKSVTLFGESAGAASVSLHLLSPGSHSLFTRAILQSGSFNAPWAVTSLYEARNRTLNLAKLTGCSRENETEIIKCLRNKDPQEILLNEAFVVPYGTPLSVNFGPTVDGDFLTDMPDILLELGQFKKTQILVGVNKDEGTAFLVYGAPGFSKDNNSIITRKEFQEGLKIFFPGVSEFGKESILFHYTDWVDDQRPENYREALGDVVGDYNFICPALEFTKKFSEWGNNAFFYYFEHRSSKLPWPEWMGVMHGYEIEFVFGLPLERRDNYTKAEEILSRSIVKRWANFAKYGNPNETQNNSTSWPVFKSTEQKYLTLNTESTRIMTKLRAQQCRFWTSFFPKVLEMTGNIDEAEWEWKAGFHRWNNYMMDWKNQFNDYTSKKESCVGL
AMC9: Metacaspase-9 (AMC9, Arabidopsis thaliana, UniProt Q9FYE1)
UniProt Q9FYE1, sequence (whole entry, looked up): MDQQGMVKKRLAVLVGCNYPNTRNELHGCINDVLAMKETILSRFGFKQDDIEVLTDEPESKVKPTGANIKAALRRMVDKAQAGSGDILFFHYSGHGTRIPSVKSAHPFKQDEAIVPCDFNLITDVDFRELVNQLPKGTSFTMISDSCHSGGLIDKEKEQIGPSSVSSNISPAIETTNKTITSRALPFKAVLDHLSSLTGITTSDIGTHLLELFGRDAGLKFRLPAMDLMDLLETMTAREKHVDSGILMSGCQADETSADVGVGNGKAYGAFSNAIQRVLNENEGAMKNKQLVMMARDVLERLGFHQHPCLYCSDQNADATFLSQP
UniProt P9WGK3, sequence (whole entry, looked up): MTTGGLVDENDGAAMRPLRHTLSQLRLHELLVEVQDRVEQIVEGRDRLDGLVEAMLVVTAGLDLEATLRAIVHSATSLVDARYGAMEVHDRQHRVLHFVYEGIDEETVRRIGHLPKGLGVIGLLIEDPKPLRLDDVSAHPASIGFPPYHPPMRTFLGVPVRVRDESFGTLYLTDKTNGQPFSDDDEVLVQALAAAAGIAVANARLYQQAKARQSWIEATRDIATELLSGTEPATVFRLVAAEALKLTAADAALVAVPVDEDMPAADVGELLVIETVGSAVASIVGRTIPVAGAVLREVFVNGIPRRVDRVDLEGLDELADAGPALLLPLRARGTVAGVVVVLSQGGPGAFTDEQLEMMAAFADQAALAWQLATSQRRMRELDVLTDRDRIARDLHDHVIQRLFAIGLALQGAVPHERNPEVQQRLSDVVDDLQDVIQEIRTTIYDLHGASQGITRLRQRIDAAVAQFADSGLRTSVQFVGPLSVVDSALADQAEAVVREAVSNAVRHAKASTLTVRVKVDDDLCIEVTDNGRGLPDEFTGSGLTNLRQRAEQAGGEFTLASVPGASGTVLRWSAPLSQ
UniProt P08173, sequence (whole entry, looked up): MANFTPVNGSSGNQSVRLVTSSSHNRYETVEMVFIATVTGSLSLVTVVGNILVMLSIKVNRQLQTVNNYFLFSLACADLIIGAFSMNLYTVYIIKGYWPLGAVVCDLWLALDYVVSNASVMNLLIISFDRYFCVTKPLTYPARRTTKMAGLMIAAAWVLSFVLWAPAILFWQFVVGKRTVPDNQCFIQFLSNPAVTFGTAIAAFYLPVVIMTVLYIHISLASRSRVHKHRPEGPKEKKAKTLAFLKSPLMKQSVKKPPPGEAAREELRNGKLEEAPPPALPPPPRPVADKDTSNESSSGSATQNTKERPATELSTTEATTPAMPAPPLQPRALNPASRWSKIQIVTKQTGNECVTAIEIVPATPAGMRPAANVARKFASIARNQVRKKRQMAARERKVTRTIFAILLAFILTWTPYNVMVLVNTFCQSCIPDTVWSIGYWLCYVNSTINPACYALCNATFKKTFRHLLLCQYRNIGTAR
UniProt O43242, sequence (whole entry, looked up): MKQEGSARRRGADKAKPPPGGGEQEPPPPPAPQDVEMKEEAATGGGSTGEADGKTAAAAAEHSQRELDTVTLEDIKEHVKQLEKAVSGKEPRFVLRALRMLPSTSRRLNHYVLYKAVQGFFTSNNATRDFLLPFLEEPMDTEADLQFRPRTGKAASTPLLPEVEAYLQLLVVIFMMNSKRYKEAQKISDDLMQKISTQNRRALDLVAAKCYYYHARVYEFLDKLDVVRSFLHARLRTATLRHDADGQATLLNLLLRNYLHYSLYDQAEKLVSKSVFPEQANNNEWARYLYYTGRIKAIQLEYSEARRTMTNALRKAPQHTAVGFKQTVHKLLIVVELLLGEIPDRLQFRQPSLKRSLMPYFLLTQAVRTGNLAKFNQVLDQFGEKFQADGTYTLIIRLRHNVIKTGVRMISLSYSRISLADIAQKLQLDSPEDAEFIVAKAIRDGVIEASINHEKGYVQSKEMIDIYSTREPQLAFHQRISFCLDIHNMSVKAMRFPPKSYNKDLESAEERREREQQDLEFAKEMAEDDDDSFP
UniProt Q8NET8, sequence (whole entry, unmodified, looked up): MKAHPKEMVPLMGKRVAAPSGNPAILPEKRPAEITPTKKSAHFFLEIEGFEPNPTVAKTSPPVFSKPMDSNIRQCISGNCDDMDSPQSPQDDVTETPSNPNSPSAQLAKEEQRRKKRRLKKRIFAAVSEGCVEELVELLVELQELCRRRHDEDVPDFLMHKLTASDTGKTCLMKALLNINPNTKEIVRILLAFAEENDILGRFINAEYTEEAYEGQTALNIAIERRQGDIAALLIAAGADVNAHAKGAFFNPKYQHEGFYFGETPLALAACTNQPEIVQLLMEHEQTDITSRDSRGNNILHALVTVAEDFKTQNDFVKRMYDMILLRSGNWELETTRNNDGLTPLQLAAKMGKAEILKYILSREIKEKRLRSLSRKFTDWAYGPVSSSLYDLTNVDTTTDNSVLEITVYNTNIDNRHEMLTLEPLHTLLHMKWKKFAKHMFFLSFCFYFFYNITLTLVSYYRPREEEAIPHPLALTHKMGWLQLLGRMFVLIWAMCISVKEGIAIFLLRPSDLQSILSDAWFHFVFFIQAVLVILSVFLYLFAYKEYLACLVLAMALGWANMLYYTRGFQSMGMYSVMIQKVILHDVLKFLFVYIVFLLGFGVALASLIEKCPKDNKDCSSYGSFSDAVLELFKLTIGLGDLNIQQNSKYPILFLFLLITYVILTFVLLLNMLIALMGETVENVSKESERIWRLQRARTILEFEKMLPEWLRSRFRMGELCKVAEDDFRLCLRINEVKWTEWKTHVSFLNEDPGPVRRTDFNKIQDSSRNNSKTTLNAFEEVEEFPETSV

Structure (SMILES) = CC(=O)[C@H]1CC[C@H]2[C@@H]3C[C@H](C)C4=CC(=O)CC[C@]4(C)[C@H]3[C@@H](O)C[C@]12C; target = PGR; assay = agonist; endpoint = EC50; value = 0.003 µM
Structure (SMILES) = Cc1nc2[nH]c(=O)n(O)c(=O)c2s1; target = ilvC; assay = inhibitor; setting = 30 min preincubation, together with: NADPH; endpoint = Ki; value = 0.36 ± 0.05 µM
Structure (SMILES) = Nc1ncnc2c1ncn2[C@@H]1O[C@H](COP(=O)(O)OP(=O)(O)NP(=O)(O)O)[C@@H](O)[C@H]1O; target = Oxygen sensor histidine kinase response regulator DevS/DosS, CA domain (devS, Mycobacterium tuberculosis, UniProt P9WGK3); endpoint = Kd; value = 53 ± 13 µM
Structure (SMILES) = CC1(N2CCC(n3c([C@@H]4CCCNC4)nc4ccccc43)CC2)CCCCCCC1; target = BCHE; assay = inhibitor; setting = with Triton; endpoint = IC50; value = 11.4 ± 8.46 µM
Structure (SMILES) = CCc1nc2c(=O)n(O)c(=O)[nH]c2s1; target = ilvC; assay = inhibitor; setting = 30 min preincubation, together with: NADPH; endpoint = Ki; value = 43.1 ± 9 µM
Structure (SMILES) = CCC(=O)O[C@H]1CC[C@H]2[C@@H]3CCC4=CC(=O)CC[C@]4(C)[C@H]3CC[C@]12C; target = PGR; assay = inhibitor; endpoint = IC50; value = 0.328 µM
Structure (SMILES) = CCCc1nc2[nH]c(=O)n(O)c(=O)c2s1; target = ilvC; assay = inhibitor; setting = 30 min preincubation, together with: NADPH; endpoint = Ki; value = 1.01 ± 0.14 µM
Structure (SMILES) = O=C1NC(=S)NC(=O)C1=CC=Cc1ccco1; target = AMC9; assay = enzyme activity, inhibitor; setting = pH 5.5, together with: VRPR-AMC 50 µM; endpoint = IC50; value = 60 µM
Structure (SMILES) = CCCCCc1cc(O)c2c(c1)OC(C)(C)c1ccc(C)cc1-2; target = rat intestinal maltase; assay = inhibitor; system = rat intestinal acetone powder; setting = 10 min, 37 °C, together with: maltose 10 mM; endpoint = IC50; value = 350 ± 50 µM
Structure (SMILES) = CCC1(c2ccccc2)C(=O)NC(=O)NC1=O; target = Bile salt export pump (ABCB11, Homo sapiens, UniProt O95342); assay = inhibitor; endpoint = IC50; value = > 100 µM
Structure (SMILES) = O=C1NC(=S)N(c2ccc(Cl)cc2)C(=O)C1=Cc1ccc(I)o1; target = AMC9; assay = enzyme activity, inhibitor; setting = pH 5.5, together with: VRPR-AMC 50 µM; endpoint = IC50; value = 19 µM
Structure (SMILES) = NCCc1ccc(Oc2ccc(O)cc2)c(I)c1; target = Sodium-dependent serotonin transporter (Slc6a4, Mus musculus, UniProt Q60857); assay = serotonin uptake, inhibitor; system = TAAR1 knock-out mice, striatal synaptosomes; setting = 15 min, together with: [3H]serotonin 50 nM; endpoint = IC50; value = 4.6 ± 1.1e-06 µM
Structure (SMILES) = CC(C)c1nc2[nH]c(=O)n(O)c(=O)c2s1; target = ilvC; assay = inhibitor; setting = 30 min preincubation, together with: NADPH; endpoint = Ki; value = 1.06 ± 0.14 µM
Structure (SMILES) = C[C@]1(O)CC[C@H]2[C@@H]3CCC4=CC(=O)CC[C@]4(C)[C@@]3(F)[C@@H](O)C[C@@]21C; target = PGR; assay = agonist; endpoint = EC50; value = 0.074 µM
Structure (SMILES) = Clc1cc(Cl)cc(N2CCNCC2)c1; target = Muscarinic acetylcholine receptor M4 (CHRM4, Homo sapiens, UniProt P08173); assay = ERK1/2 phosphorylation, agonist; system = CHO cells; endpoint = EC50; value = > 20 µM
Structure (SMILES) = CO[C@H]1[C@H](O[C@H]([C@H]2O[C@@H](n3ccc(=O)[nH]c3=O)[C@H](O)[C@@H]2O)[C@H](NCCCNC(=O)[C@@H](NC(=O)[C@@H](NC(=O)N[C@H](C(=O)O)C(C)C)[C@@H]2CCN=C(N)N2)[C@@H](OC(=O)CCCCCCCCCCCCN(O)C(=N)N)C(C)C)C(=O)O)O[C@H](CN)[C@H]1O; target = MurX, Mycolicibacterium smegmatis; assay = enzyme activity, inhibitor; system = P-60 membrane fraction; endpoint = IC50; value = 0.018 ± 0.035 µM
Structure (SMILES) = C[C@H]1CN(c2n[nH]c3nc(N[C@H]4CC[C@H](NS(=O)(=O)CCC(F)(F)F)CC4)ncc23)CCO1; target = 26S proteasome non-ATPase regulatory subunit 3 (PSMD3, Homo sapiens, UniProt O43242); assay = inhibitor, Kinobeads competition profiling; setting = 0.032 µM; how to read = reference: vehicle; endpoint = relative abundance; value = 0.95
Structure (SMILES) = CCCc1cc(O)c2c(c1)OC(C)(C)[C@@H]1CCC(C)=C[C@@H]21; target = Transient receptor potential cation channel subfamily V member 3 (TRPV3, Homo sapiens, UniProt Q8NET8, E501A); assay = calcium uptake, agonist; system = HEK293S; setting = mutant E501A, site 2; endpoint = EC50; value = 35.5 ± 0.48 µM
Structure (SMILES) = O=C1NC(=S)N(c2cccc(Cl)c2)C(=O)C1=Cc1ccc2c(c1)OCO2; target = AMC9; assay = enzyme activity, inhibitor; setting = pH 5.5, together with: VRPR-AMC 50 µM; endpoint = IC50; value = 86 µM
Structure (SMILES) = CC(Cc1ccccc1)NCCC(c1ccccc1)c1ccccc1 (centres unmarked); target = Histamine H1 receptor (HRH1, Homo sapiens, UniProt P35367); assay = inhibitor; endpoint = IC50; value = 7.87 µM
Structure (SMILES) = O=c1[nH]c2scnc2c(=O)n1O; target = ilvC; assay = inhibitor; setting = 30 min preincubation, together with: NADPH; endpoint = Ki; value = 59.4 ± 13 µM
Structure (SMILES) = C[C@@H](Cc1ccccc1)N(C)Cc1ccccc1; target = Alpha-2C adrenergic receptor (ADRA2C, Homo sapiens, UniProt P18825); assay = inhibitor; endpoint = IC50; value = 0.681 µM
Structure (SMILES) = Nc1nc2[nH]c(=O)n(O)c(=O)c2s1; target = ilvC; assay = inhibitor; setting = 30 min preincubation, together with: NADPH; endpoint = Ki; value = 2.53 ± 0.22 µM
Structure (SMILES) = COc1cc(Br)c(C=C2C(=O)NC(=S)N(c3ccc(Cl)cc3)C2=O)cc1OC; target = AMC9; assay = enzyme activity, inhibitor; setting = pH 5.5, together with: VRPR-AMC 50 µM; endpoint = IC50; value = 35 µM
Structure (SMILES) = CCCc1nc2c(=O)n(O)c(=O)[nH]c2s1; target = ilvC; assay = inhibitor; setting = 30 min preincubation, together with: NADPH; endpoint = Ki; value = 11.5 ± 1.6 µM
Structure (SMILES) = C[C@@H](C1=C(CCN(C)C)Cc2ccccc21)c1ccccn1; target = BCHE; assay = inhibitor, fluorometric; endpoint = IC50; value = 1.09 ± 0.4 µM

Excerpt of the above:
Structure (SMILES) = COc1cc(Br)c(C=C2C(=O)NC(=S)N(c3ccc(Cl)cc3)C2=O)cc1OC; target = AMC9; assay = enzyme activity, inhibitor; setting = pH 5.5, together with: VRPR-AMC 50 µM; endpoint = IC50; value = 35 µM
Structure (SMILES) = CC(C)c1nc2[nH]c(=O)n(O)c(=O)c2s1; target = ilvC; assay = inhibitor; setting = 30 min preincubation, together with: NADPH; endpoint = Ki; value = 1.06 ± 0.14 µM
Structure (SMILES) = Clc1cc(Cl)cc(N2CCNCC2)c1; target = Muscarinic acetylcholine receptor M4 (CHRM4, Homo sapiens, UniProt P08173); assay = ERK1/2 phosphorylation, agonist; system = CHO cells; endpoint = EC50; value = > 20 µM
